Experimental data pooled from the literature.
Parts stem from different laboratories: compare values within a part only.

Sample 1
Target: Histone acetyltransferase KAT6A, winged helix 2, GST fusion (KAT6A, Homo sapiens, UniProt Q92794, residues 85-181)
Method: protein binding microarray
Molecule type: double-stranded DNA, one strand shown
Sample: in vitro
Concentration: not given
Notes: 8-mer, flanks averaged, mean of 2 arrays, mostly near background
Relative to: not given
Direction: higher = stronger binding
Measurement: E-score
Target sequence (chain): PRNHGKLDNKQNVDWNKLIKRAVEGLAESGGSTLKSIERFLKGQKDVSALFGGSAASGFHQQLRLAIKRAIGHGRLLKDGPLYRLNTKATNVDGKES
CATATAAG: -0.062
AGCTACTC: -0.0923
ATCATGCG: 0.0928
CTTCTATC: -0.074
CACCAGGG: -0.0204
ACTGCGCT: -0.0121
AAGGTTGC: -0.0473
AGTGAGAC: -0.0739
GCGTACAC: -0.0548
ACGGAAGA: -0.131
GACCCGCA: 0.0478
AACTTCTA: -0.043
GAACGCAA: 0.133
ATCGCCTA: -0.0575
GTAAACCA: -0.145
GGCTATTA: -0.121
ATCCTTAG: -0.141
ACCACTGC: -0.15
GGCGGCAC: 0.156
ATAAGGTA: -0.172
AAGCTCCA: 0.0887

Sample 2
Target: Cyclic AMP-responsive element-binding protein 1 (CREB1, Homo sapiens, UniProt P16220, residues 1-327, full length assumed)
Sequence of UniProt P16220 (whole entry, looked up): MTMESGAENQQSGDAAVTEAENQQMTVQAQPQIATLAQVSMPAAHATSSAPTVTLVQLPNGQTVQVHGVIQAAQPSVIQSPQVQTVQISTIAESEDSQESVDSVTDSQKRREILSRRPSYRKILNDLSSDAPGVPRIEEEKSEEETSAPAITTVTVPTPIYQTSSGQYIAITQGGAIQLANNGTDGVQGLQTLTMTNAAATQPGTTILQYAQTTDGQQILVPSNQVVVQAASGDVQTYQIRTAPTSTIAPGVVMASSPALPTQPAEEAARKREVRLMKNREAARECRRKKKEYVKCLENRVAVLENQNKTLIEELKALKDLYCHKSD
Method: protein-binding microarray
Molecule type: double-stranded DNA, one strand shown
Sample: in vitro
Concentration: not given
Notes: k-mer, scored over probes, only values ≥0.25
Direction: higher = stronger binding
Measurement: E-score
AAACATA: 0.276
AATGATA: 0.293
CGTAATC: 0.383
ACGTGTA: 0.27
CGATGAC: 0.32
AACGTTA: 0.295
ATAATTA: 0.258
ATGATGC: 0.266
ACGTTTG: 0.264
CGTCATA: 0.489
AATATTA: 0.289
ACATGAC: 0.317
GTAAGAA: 0.263
GACATCA: 0.288
CGTAACA: 0.327

Sample 3
Target: RING finger protein unkempt homolog, zinc fingers 1-6, GST-SBP tag (UNK, Homo sapiens, UniProt Q9C0B0, residues 30-357)
Method: RNA Bind-n-Seq
Molecule type: RNA
Sample: in vitro
Concentration: not given
Notes: RNA with constant flanks, human and mouse sites, ends assumed
Relative to: input RNA pool
Direction: higher = stronger binding
Measurement: bound/input enrichment
All sequences stand within: GGGAGUUCUACAGUCCGACGAUC … CAACAGAGGAUUGAGCAUCA
Residues (chain): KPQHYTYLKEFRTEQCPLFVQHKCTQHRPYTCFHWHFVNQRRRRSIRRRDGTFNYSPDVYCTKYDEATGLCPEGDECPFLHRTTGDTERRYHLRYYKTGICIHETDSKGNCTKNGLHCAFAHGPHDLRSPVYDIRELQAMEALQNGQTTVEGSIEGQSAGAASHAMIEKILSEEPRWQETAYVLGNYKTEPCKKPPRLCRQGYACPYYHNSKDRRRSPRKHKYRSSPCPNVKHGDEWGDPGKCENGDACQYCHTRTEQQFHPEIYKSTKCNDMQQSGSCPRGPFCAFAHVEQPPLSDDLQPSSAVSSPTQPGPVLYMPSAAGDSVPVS
UACUGUGACCUCCAGCAAGAACCCAAUGGUAUCACCGGAAUCCUGAAGUGGGUAAAACUGAUAGACAACUUUGAAGGAGAAUACGACUACGUAACCAACGAGGGCACAGUGUUCACAUUC: 0.109 ratio
UGAUCUUCUGCUCUUCCCACUUCCUCCCCUUUCUACUGCUCUCCCAUUUUCCCUUGCUGGGAGUAGCCACAUGCUCUUGCCCCCCAACCCUUGUAUAUGGGGACAGUGGGGUCAGUGCAG: 0.245 ratio
UGCUUUUGCUAUAAGCAUUAUUGUAAGAGUAUCUCAAGCAGGGGUCGUUACAACCGUGAUUUGGAACAGGAUGAAGCAUUUAUUCCAGUAGGAGAAUCAUUGAAAGACCUGAUUGACCAG: 0.169 ratio
GAAAGCCUGCAAGAAACCAAAGCUAGAGAUCUGGAAAUACAACAGGAACUAAAAACUGCUCGUAUGCUAUCAAAAGAACACAAAGAAACUGUUGAUAAACUUAGAGAAAAAAUUUCAGAA: 0.752 ratio
GUGACUAAGUGAUUAGGUAAAGAGUAAGAAAAGACACCAAAAUAAAGUACUGCGGAGGAAUUUCUGUCAAGCUGUGAGACGACGGAGUGAAGAGUGAAGGCGAUUGCGAGGGGCUGAGGG: 0.902 ratio
ACUUGGGGCUCUGCAGGACCUUCUCUGUCCAGCGCCCCCUUUCUGUUGUGCGAUUAGUUGUAGCUGCCAUGCUCAGAAUUGCCUUUUGAGAGCUGAAGCAAGGUGCUUACUGUCACCUGA: 0.0956 ratio
GUGAUGUCUGGAGACAUGUUGGGUUGUCAAAACUGGGGUGGGGAAAAGGUUGCUACUGUGCAAUGCAUACCUCCUCAACACCCCCCCACACUCAGUAAAGAAUUUUCCAACCCAAAAUAU: 0.145 ratio
CUUGGAGAAGGUCCAAAAGCUUCUUUGCAUGUGUCCAGUGGAUUUCCAUGGGAUCUUCCAGUUAGAUGAAAGACGGAGAGAUGCAGUGAUUGCAUUGGGCAUUUUUCUGAUUGAAUCUGA: 0.103 ratio
CGCAUCUUUCAUCAGAAUGCAGUCGUGUCUAAGAGUGGGUAUUUUGUGAUAAUGUUUACUAUAGAUCAUUUGUUAAUUUUGAUGCCUUCAUUUUAGCUAAUUUCAGAAUUUUUAUUAGGU: 35.7 ratio
GUGUGGCGCGCUGUCUUCCCGCUCGCGUCAGGGACCUGCCCGACUCAGCGGCUGCCAUGGCAUCAGAUGAAGGCAAGCUUUUCGUGGGAGGACUCAGCUUCGACACCAACGAGCAGGCGC: 0.097 ratio
CUGAAGUACAAUCAAGCUACACAGACUUUCCACCAAUGGAGGGAUGCUAGACAGGUGUAUGGUCUCAACUUUGGCAGCAAAGAGGAUGCCAAUGUCUUCGCAAGUGCCAUGAUGCAUGCC: 0.12 ratio

Sample 4
Target: RNA binding protein fox-1 homolog 2, RRM domain, GST-SBP tag (RBFOX2, Homo sapiens, UniProt O43251-10, residues 100-194)
Method: RNA Bind-n-Seq
Molecule type: RNA
Sample: in vitro
Concentration: 365 nM
Notes: natural RNA segment, single round, ends assumed
Relative to: no-protein control
Direction: higher = stronger binding
Measurement: RBNS enrichment (R)
All sequences stand within: GGGAGUUCUACAGUCCGACGAUC … UGGAAUUCUCGGGUGCCAA
GCAUCAUUCCAGCCAGACUUGCUGAAAAUCUACUGGUGAGGCAAAUAUAAUAUAUAUAAAUAUGCUACAUAUAUAUUUAUAAAAUUUCUAGUGGGAGUUCUAUAUAAAUG: 3.13
AGAAUGGCUCCAGCUGUGGGUGUGCACAAUGAGGGAGGAACUGCUUUCCCCCUUACUGUCAUUGGUCAGUGGAGCAGAUUCUCAUGGCUGUAGGUAGUUGCUACACAGGA: 1.28
CACACCCUUCCCCUCCUGACAUCUUUAGUUUGGAGCACACAGAGGAAAUAGAACCUAAACACAUGCCCAGAAGUCCUGGUUCAAAAGCUUUACUAUGGAGCCUGCAUAUG: 0.428
AGGCCUCCCUGUUUGAAGCCUGCCCUUGUCUGAGAUGCUGGUAAUGGCCAUGGUACCCCCUUCUGGGCAUCUGUUCUGGUUUUUAACCAUUGUCUUGUUCUGUGAUGAGG: 1.54
UGCUUGUUGAGUUGUUUUGGCAUUCAUAUUAAAAGCCAGCAUCUCACUAUUUAUUGACAGGUUGGGCUGUGUGUGUGCGCAUGUGUGUAUACAUUUCCAGGCGUGCCUGU: 0.77
CAUGGCUUCACCUGUCCCCGAAACUACCAGCCCUACACCAUUCCUUCUGCCCUGCUUUUGCUAGGUCACAGAGGAUCUGCUUGGUCUUGAUAAGCUAUGUUGUUGCACUU: 0.434
ACUGUUACACCCUUUGAACGGAUGCUUUAGCUCUGAUGUCGUCACAGAGCCUUGGUUUAUCCUGUACCUGUCAUUUCUGUUUGCAACUGGUUGCUGUAGCAACAAGAGUG: 0.733
AAUAAAAAAUAAAAUGCAAGUGAAAACAGGGGGGGAAUUGGAUUAUUUCCUGCACUGGGUUGUGCGUGUGUGUGUGUGUGCGCGUGUAUGUGCGUGUGUGUGCGCGUGUG: 1.97
UGUAUUUUGAGUUAUUCCAACAGAGAUGAUGGAUUCCUGUAGAACUAGAGGUGGGUGACCUAUGGUUAUGUGGCACGGCAAAGCAAGUACCUCUUAAGGGACUCUAAUAU: 1.18
UUUCCAGUUAACUUUGCAUCUUCAUACUCCUCAAGCAGACAUCACUCUUCCGUUUCUUCUAACCUGCUGUUUCUGUUCUGACAGCGGCUCCUUUGUAAGCUUCAGGCCAC: 4.51
CAUGGCGUUUGGUUCUCCUUCCUUCUCUCUCCUGCUCACUUCUCUGCCGCGCAACACAUCUCUCUGAGGCUGGCAAGCCUCGCCCCUCGCAGUGACGUCCUCCCACGCCU: 0.802
AUUGGUUAGAAAAAAAUAGAUUGUCUAUUGAAAGAAAUUCUCUCUCUGCAGUAGAUUAUAUUUAUCCUAAUCUAUUGAUAUUCUGUUGAUUUGUUUUAAGAGAUAGAACU: 0.446

Sample 5
Target: UBE2J2 UBC core domain (UniProt Q8N2K1)
Method: yeast two-hybrid
Sample: yeast
Notes: mostly zero background
Relative to: not given
Direction: higher = stronger interaction
Measurement: lacZ reporter activity
B1: TRIM10 RING domain (UniProt Q9UDY6); chain SVTSLADEVNCPICQGTLREPVTIDCGHNFCRACLTRYCEIPGPDLEESPTCPLCKEPFRPGSFRP
B2: PEX2 RING domain (UniProt P28328); chain DNTLATSGKECALCGEWPTMPHTIGCEHIFCYFCAKSSFLFDVYFTCPKCGTEVHSLQPLK
B3: PHF7 RING domain (UniProt Q9BWX1); chain IQHGHVGEESCILCCEDLSQQSVENIQSPCCSQAIYHRKCIQKYAHTSAKHFFKCPQCNNRKEFPQEML
B4: TRIM15 RING domain (UniProt Q9C019); chain SLKVVHELPACTLCAGPLEDAVTIPCGHTFCRLCLPALSQMGAQSSGKILLCPLCQEEEQAETPMA
B5: RNF149 RING domain (UniProt Q8NC42); chain EKGIDVDAENCAVCIENFKVKDIIRILPCKHIFHRICIDPWLLDHRTCPMCKLDVIKALGYW
B6: RNF175 RING domain (UniProt Q8N4F7); chain LPTRSLSDNICAVCGQKIIVELDEEGLIENTYQLSCNHVFHEFCIRGWCIVGKKQTCPYCKEKVDLKRMIS
B7: TRIM55 RING domain (UniProt Q9BYV6); chain TMDNLEKQLICPICLEMFTKPVVILPCQHNLCRKCASDIFQASNPYLPTRGGTTMASGGRFRCPSCRHEVVLDRHG
Target sequence (chain): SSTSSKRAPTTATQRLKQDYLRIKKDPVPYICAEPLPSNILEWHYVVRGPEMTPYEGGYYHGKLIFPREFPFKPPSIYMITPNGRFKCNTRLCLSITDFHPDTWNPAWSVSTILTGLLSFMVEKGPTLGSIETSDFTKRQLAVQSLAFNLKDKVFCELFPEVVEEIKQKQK
B1 (TRIM10 RING domain): 0
B2 (PEX2 RING domain): 0
B3 (PHF7 RING domain): 0
B4 (TRIM15 RING domain): 0
B5 (RNF149 RING domain): 0
B6 (RNF175 RING domain): 0
B7 (TRIM55 RING domain): 3080

For quick reference, copied from above (sample 1):
ATCCTTAG: -0.141
GGCTATTA: -0.121
ATCATGCG: 0.0928
AAGGTTGC: -0.0473
